# Published values gathered from unrelated publications.
# Numbered parts are unrelated; each lists some results of a single study. Changes are numbered by the printed parent chain.

# Series 1
# Target: Fragile X messenger ribonucleoprotein 1, C-terminal low-complexity region (Fmr1, Mus musculus, UniProt P35922)
# Method: RNA Bind-n-Seq
# Molecule type: RNA
# Matrix: in vitro
# Concentration: 200 nM
# Notes: whole 134-nt RNA, ends assumed
# With: 150 mM LiCl
# Relative to: input library
# Reading: higher = stronger binding
# All molecules: 7-deaza-guanosine replaces G
Oligonucleotide,log2 enrichment
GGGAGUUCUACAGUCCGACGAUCUCCUCAAGUCCUGUGCUACACAUCGUAUGUACCGAAUCGGUUUGGUGGUGGAAAGUAUUAUGUUACGCCGUUCGGAUCUGCACUUCCAGCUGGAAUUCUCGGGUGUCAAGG,-0.133
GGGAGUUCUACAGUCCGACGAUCAAGUCCUGUGCUACACAUCGUAUGUACCGAAUCGGGUGGGAAAGGGUUUUUUUGGGAAAGUAUUAUGUUACGCCGUUCGGAUCUGCACUUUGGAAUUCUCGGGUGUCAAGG,-1.72
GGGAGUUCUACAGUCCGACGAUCCACAGACAACACGCACCCACACAGACACAGAGGGAAGGGGUUGGGAUGGGGACAGGGCGCACAGCAGGGCGGGGUAGGACCCCAGCCCCUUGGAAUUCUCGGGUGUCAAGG,0.326
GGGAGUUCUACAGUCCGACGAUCUAACUUUAGAGGAGGAUCUGAUGGAUAUGGCAGUGGACGUGGAUUUGGGGAUGGCUAUAUUGGGUAUGGAGGAGGACCUGGAGGUGGCAAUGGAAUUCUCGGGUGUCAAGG,0.0692
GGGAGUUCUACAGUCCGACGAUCUCCUGUGCUACACAUCGUAUGUACCGAAUCGGGGUUUUUUGGGUUUUUUGGGUUUUUUGGAAAGUAUUAUGUUACGCCGUUCGGAUCUGCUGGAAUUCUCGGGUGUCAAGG,-0.108
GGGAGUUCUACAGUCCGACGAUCUACCUUUAGAGGAGGAUCUGAUGGAUAUGGCAGUGGACGUGGAUUUGGGGAUGGCUAUAAUGGGUAUGGAGGAGGACCUGGAGGUGGCAAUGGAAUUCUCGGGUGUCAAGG,0.227
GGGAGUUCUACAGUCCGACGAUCCACAGACAACACGCACCCACACAGACACAGAGGGAAGGGGUAGGGAUGGGGACAGGGUGCACAGCAGGGCGGGGUAGGACCCCAGCCCCUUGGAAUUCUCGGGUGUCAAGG,-0.673
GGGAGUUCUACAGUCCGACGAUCAAGUCCUGUGCUACACAUCGUAUGUACCGAAUCGGGUUUGGGUUUGGGAAAAAGGGAAAGUAUUAUGUUACGCCGUUCGGAUCUGCACUUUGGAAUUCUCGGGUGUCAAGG,-1.63
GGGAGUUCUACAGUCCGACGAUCCACAGACAACACGCACCCACACAGACACAGGGGGAAGGGGUUGGGAUGGGGACAGGGUGCACAGCAGGGCGGGGUAGGACCCCAGCCCCUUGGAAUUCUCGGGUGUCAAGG,0.388
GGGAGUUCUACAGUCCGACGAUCCCUGUGCUACACAUCGUAUGUACCGAAUCGGUUUUUUUGGGGUUUUUUUGGUUUUUUUGGAAAGUAUUAUGUUACGCCGUUCGGAUCUGCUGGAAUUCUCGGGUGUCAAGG,0.146
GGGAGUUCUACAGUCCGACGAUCCAAGUCCUGUGCUACACAUCGUAUGUACCGAAUCGGGAAAGGGAAAGGGUUUGGGAAAGUAUUAUGUUACGCCGUUCGGAUCUGCACUUCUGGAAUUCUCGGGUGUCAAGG,-1.67

# Series 2
# Target: ABI1, truncated, D143A, DHFR fusion (Arabidopsis thaliana)
# Method: DHFR PCA, deep sequencing
# Matrix: yeast
# Notes: methotrexate growth selection, single substitutions
# With: (+)-ABA 710 µM
# Relative to: wild-type fitted maximum
# Reading: higher = stronger binding
# Parent: PYL1, truncated, DHFR fusion (Arabidopsis thaliana); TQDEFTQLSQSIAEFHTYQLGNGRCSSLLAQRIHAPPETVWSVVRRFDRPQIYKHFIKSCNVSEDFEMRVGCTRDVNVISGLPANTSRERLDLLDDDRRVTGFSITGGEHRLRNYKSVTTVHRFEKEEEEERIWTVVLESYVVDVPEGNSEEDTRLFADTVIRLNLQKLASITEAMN; partner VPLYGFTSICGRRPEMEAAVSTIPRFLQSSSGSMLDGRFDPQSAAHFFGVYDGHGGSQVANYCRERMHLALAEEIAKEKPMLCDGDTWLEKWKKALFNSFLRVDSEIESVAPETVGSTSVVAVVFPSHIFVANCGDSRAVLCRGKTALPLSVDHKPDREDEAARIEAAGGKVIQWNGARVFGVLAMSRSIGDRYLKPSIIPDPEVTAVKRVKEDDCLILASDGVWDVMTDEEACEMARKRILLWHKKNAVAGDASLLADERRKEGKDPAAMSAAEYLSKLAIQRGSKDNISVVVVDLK
Variant,relative binding score
G148R,87.4%
E125I,106%
D65F,98%
D97T,123%
E131R,108%
A13Q,86%
N85L,102%
L169W,-6.71%
Q19T,107%
Q10F,97.1%
K116D,12.8%
R46V,92.2%
D153G,53.6%
P83H,56.1%
S42T,98.9%
T1R,95.9%
A170G,97%
A30Q,108%
T1H,98.7%
S9M,93.5%
I57D,-1.67%

# Series 3
# Target: Histone acetyltransferase KAT6A, winged helix 2, GST fusion (KAT6A, Homo sapiens, UniProt Q92794, residues 85-181)
# Method: protein binding microarray
# Molecule type: double-stranded DNA, one strand shown
# Matrix: in vitro
# Concentration: not given
# Notes: 8-mer, flanks averaged, mean of 2 arrays, mostly near background
# Relative to: not given
# Reading: higher = stronger binding
# Construct (chain): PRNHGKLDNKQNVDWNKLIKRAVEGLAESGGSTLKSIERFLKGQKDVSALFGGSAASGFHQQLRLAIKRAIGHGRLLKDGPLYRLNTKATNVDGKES
Oligonucleotide,E-score
CGGATCCG,0.034
CTCAGGGA,-0.0702
CGGATGAG,0.119
CCTCCGAC,0.0809
AGGATGAC,-0.176
ATGTACGC,-0.199
AAGTCCGT,-0.209
TGCCGACA,0.0903
ATAAGTAT,-0.056
CTAGGTGC,-0.0812
CATATATC,0.0234
AGGCAAAA,0.0113
ACCGTCCC,-0.148
CAATCATA,0.029
CCATCATC,-0.158
GTCAGTTA,-0.208
GGCAACTA,0.0775
AGGCTCAT,0.092
TAATCCTA,-0.0909
GGCGTCTA,-0.0509
ATCGCCGG,0.187
AACGAGGA,0.0145
CAAGGACG,-0.101
CGATATTA,0.203
AGTGCCAT,-0.181

# Series 4
# Target: RING finger protein unkempt homolog, zinc fingers 1-6, GST-SBP tag (UNK, Homo sapiens, UniProt Q9C0B0, residues 30-357)
# Method: RNA Bind-n-Seq
# Molecule type: RNA
# Matrix: in vitro
# Concentration: not given
# Notes: RNA with constant flanks, human and mouse sites, ends assumed
# Relative to: input RNA pool
# Reading: higher = stronger binding
# Construct (chain): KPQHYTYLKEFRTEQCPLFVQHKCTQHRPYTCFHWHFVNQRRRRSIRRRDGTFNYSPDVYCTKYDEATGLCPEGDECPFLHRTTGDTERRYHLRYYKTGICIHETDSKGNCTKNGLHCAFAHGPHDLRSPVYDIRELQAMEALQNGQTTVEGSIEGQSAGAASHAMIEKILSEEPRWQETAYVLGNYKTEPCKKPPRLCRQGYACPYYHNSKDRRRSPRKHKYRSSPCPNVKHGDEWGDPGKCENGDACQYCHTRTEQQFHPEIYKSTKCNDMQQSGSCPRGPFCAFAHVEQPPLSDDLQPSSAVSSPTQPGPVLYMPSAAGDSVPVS
Oligonucleotide,bound/input enrichment [ratio]
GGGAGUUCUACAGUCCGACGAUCAAGCCCUUGUGCCCUUGUCUUCAAGAAGUUCCAAAUCACCUGUUUUCCAAAGGUCCAGCAUUUUGUGGGGACAAGGCCUUGCCUUUGGCUCAUCAGAAGACCUGUCUUUCCAUCCUACUGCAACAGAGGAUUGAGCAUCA,0.085
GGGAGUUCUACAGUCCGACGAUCAGCAGAAGCAGGAACGUCAGAAGUUGAAGGGCAUCCUCAGCUGUCCGCGAGUUCUGUAGGACAUUCCAAUUUGGAUUUUUAUUAUUGCUGGAAAAAAGUUUGCUUUACCCCAGACUUGAACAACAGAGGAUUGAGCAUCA,0.259
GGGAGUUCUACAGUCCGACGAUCGUACUGCUGGUAUUGUACCAGGAACAUUUUCUUUUAUUGUUACUUGCUUUUUAAACUUUGUUUAGCCACUUAAAGAAAACCUGCUCAUGGCACAACUUGCCUCAAAUCCAUUCCAAGUUGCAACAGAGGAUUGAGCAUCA,0.475
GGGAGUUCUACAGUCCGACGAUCCGCAUGCAGCAGAUGGUGGGCCAGCUGGGCAUCCUGACGCCGUCCCUCACAUUGCCCUUCAGCCCCUACAGUGCCUACGCCCAGGCUCUCAUGCAACAGCAGACAACAGUCCUGUCCACCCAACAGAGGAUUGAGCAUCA,0.192
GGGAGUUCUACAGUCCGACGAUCAUUUCCCCAAAAGUUACGAGUUUAUUGGUGGUCCCUGGGAGCUCAGAUGUAAAAGACAAAGUUAGCUCGGAUCUCCCACAGAUAGGGCCACCCUUGACCUCUACACCCCAACUACAGGCUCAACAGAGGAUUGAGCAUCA,0.148
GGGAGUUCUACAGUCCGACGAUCAGUUUAUUAUUGUUGCUUAAUAAGAAAACACGGUUCCACUUGGGCUAUUUUAAGGGCAGGUAGCUAUCACUCUGUCUUGUGUUAUGAUUAAUAUUAUCUGCAUAAGCAUAGAAUAAUACUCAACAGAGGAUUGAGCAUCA,0.533
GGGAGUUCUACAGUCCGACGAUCCAAGGCAUCUGUCCUGAAAGCUGCUAAUCUAUGGUCUAGUGAAUUUAUAUUAUAUGCAGAUAGUAAUGAACUGGGAGAUCAAUGAACAGCAAGGGUGAUACCACAUUGCAAAAUGGAAGCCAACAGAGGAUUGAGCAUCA,0.365
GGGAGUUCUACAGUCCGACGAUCGUCUACUGGAACUCGGCGAAUAAGAGGUUCCAGGCAGAGGGCGGUUACGUGCUUUAUCCUCAGAUCGGGGACCGGCUAGAUCUACUUUGUCCCCGGGCUCGGCCUCCUGGCCCCCACUCCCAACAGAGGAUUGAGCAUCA,0.396
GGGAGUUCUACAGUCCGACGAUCUUAUACCUUUUGGUUAUAAGCCCUGUGUUUGCCAUCCUUGAUCACUUGGCGGUGACUUUGUAGAGAUUGAAGUGGAGGAGUUAAGACACAUUGACUGUACCACAGACACACAUGUAUACUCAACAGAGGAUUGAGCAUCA,0.316
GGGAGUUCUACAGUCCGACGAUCACUGAGCAGAAUGAAGAGUUGAGUAUCUUAUAUCCAGCUGCCAUUGUGACUAUUGAUGGAUUUAGCCUUUUUCAAUCUCUUCGUGCUUGUCGAAAUCAGGUAGCAAAAGCUGCAGCAUCACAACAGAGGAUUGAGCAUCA,0.27
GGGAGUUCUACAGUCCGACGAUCAUGAAAAGACUAAUUGGAUGAAUACUAUCUUUCUAAUGAAUUUGUGAUUAAAUAUAUAAUAGUUGUUGAAAAUGAGUAACUUUGCGUUCUCCCCCUAGGUUGUUCUUAGAUGCCUGGCUUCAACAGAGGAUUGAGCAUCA,21

# Series 5
# Target: CCNE1, cyclin fold, Cln2 fusion (human)
# Method: yeast growth competition, sequencing
# Matrix: yeast
# Notes: weak parent motif
# Relative to: not given
# Reading: higher = stronger binding
# Parent: LLGL2 docking peptide (human); KSLKKSLRQSFRR
Variant,normalised enrichment score
S6A,-0.0147
L3A,0.417
K1A,0.377
S2A,0.606
K5A,0.841
R13A,0.826
L7A,-0.319

# Series 6
# Target: DBP, bZIP domain (human)
# Method: DHFR protein complementation
# Matrix: yeast
# Notes: single substitutions, most at no-binding floor
# Relative to: wild-type JUN-FOS pair
# Reading: higher = stronger binding
# Parent: JUN, bZIP domain (human); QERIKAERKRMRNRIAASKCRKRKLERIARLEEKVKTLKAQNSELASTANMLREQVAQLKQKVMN; partner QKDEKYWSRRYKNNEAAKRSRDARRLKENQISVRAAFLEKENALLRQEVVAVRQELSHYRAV
Variant,binding fitness
K34M,-1.35 natural log
Q41M,-1.46 natural log
A57L,-1.45 natural log
I28G,-1.39 natural log
K36I,-1.51 natural log
R53P,-1.48 natural log
E44S,-1.52 natural log
M51P,-1.5 natural log
Q55S,-1.58 natural log
E54N,-1.56 natural log
E32M,-1.54 natural log
L52D,-1.49 natural log
Q41D,-1.49 natural log
L38S,-1.41 natural log
A46M,-1.27 natural log
T48H,-1.27 natural log

# Excerpt of the above (series 6):
Variant,binding fitness
Q41M,-1.46 natural log
A57L,-1.45 natural log
I28G,-1.39 natural log
K36I,-1.51 natural log
R53P,-1.48 natural log
E44S,-1.52 natural log
M51P,-1.5 natural log
Q55S,-1.58 natural log
E54N,-1.56 natural log
E32M,-1.54 natural log
L52D,-1.49 natural log
Q41D,-1.49 natural log
L38S,-1.41 natural log
